# Measurements from different studies.
# Parts stem from different laboratories: compare values within a part only. Values joined by “and” are separate records of one study, mostly repeats; a detail may differ.
# Chain of UniProt Q9HAZ1 (whole entry, looked up): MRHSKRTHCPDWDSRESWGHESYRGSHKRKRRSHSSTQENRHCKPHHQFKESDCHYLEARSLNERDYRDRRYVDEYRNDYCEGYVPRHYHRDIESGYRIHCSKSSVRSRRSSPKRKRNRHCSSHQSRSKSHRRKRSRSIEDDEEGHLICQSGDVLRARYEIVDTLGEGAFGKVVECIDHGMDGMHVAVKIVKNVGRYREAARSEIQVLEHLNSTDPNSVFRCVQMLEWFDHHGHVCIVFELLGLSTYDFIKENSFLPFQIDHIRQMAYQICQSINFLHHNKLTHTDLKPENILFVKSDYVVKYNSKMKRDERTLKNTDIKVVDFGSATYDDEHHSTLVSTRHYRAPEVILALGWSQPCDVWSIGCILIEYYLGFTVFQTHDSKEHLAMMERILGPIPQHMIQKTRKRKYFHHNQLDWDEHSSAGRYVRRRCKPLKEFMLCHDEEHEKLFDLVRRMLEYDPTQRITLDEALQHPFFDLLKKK
# Chain of UniProt P42681 (whole entry, looked up): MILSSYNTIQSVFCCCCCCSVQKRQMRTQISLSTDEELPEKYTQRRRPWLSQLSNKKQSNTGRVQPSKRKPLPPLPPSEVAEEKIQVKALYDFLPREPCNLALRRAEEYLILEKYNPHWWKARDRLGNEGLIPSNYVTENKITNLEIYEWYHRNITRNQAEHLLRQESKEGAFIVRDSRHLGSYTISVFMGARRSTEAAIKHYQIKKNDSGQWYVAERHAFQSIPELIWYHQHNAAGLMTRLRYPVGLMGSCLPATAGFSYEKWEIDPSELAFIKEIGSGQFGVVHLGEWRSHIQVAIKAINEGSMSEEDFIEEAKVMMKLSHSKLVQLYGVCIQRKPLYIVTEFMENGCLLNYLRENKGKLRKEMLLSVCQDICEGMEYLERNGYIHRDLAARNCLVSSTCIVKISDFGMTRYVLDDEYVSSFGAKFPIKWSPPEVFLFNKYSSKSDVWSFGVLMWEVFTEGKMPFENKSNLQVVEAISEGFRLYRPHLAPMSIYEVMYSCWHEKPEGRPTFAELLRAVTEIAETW
# Chain of UniProt P49761 (whole entry, looked up): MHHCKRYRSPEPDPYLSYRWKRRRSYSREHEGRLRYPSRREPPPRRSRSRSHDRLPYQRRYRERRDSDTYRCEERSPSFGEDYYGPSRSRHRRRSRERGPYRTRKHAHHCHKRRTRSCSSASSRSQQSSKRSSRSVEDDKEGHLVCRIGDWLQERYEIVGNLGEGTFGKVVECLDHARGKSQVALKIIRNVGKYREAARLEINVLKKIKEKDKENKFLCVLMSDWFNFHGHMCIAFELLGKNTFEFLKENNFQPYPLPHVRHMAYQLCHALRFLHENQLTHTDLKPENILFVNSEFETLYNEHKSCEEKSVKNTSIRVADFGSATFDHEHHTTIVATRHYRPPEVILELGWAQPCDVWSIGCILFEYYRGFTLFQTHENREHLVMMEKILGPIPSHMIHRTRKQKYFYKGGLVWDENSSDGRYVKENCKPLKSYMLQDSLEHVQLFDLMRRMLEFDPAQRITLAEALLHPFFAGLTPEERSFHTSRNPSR
# Chain of UniProt Q02750 (whole entry, looked up): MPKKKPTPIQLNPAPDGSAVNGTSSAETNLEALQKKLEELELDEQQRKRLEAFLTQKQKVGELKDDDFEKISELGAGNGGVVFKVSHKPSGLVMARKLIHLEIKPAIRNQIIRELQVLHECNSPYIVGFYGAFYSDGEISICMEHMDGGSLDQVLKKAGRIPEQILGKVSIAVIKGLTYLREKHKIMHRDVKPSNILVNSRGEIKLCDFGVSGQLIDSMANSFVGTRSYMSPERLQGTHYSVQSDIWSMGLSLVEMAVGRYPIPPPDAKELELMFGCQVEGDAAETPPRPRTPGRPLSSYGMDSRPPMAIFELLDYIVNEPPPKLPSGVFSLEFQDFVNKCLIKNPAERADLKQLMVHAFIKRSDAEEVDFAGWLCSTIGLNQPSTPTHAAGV
# Chain of UniProt P51956 (whole entry, looked up): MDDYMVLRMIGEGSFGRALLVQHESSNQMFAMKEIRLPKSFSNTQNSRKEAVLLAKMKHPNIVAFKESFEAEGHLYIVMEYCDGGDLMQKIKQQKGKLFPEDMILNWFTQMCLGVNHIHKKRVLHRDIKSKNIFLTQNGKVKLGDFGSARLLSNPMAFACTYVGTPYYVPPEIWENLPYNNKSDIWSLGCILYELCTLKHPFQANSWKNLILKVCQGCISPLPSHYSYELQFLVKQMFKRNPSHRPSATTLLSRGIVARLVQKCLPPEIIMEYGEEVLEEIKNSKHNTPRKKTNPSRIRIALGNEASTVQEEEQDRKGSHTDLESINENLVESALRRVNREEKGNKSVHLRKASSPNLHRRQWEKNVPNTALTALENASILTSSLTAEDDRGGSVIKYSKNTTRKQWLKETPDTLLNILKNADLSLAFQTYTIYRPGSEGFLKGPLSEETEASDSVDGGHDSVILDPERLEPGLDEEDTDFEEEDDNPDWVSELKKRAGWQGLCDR

# Set 1
# Cell line: sample D normal colon organoid
# Technique: CellTiter-Glo
# Tested at: 0.1 µM
# Notes: mean of replicates
# Reference: DMSO
SMILES,viability [%]
O=C(Nc1ccc(Oc2ccc(F)cc2)cc1)N1CCc2ncccc2[C@H]1c1ccc(F)cc1,104
CNC(=O)c1ccc(Nc2ncc(C(F)(F)F)c(NCc3nccnc3N(C)S(C)(=O)=O)n2)cc1,112
O=C(N[C@H]1CCCCC/C=C\C2C[C@@]2(C(=O)O)NC(=O)[C@@H]2C[C@@H](Oc3ccncc3)CN2C1=O)OC1CCCC1 (stereo partly shown),102
O=C(c1ccc(F)cc1)N1CC(COc2ccc(Br)cc2)(C(=O)O)C1,103
Cc1nc(Cc2cccc(C(F)(F)F)c2)sc1-c1ccc(C(N)=O)nc1,127
Cc1ccc(-c2cnc([C@@]3(O)CC[C@H](C(=O)O)C(C)(C)C3)s2)cc1Nc1cccc(C(F)(F)F)n1,92.2
Cc1c(NC(=O)c2cc(C(N)=O)nc3cc(F)ccc23)c(C(F)(F)F)nn1Cc1ccc(C(C)(C)C)cc1,84.5
O=C(O)[C@H]1[C@H](Cn2nnc3ccccc3c2=O)CC[C@@H]1C(=O)c1ccc(OCCC2CCOCC2)cc1,112
CC(C)(C)OC(=O)N1CCCC1CNC1CCC(c2cc(F)ccc2F)(S(=O)(=O)c2ccc(Cl)cc2)CC1 (stereo not shown),88.6
CC(C)CC(=O)N1CCc2nc(-c3ccc(Br)cc3)nc(N(C)Cc3ccccc3)c2C1,117
Cc1c[nH]c2nccc(Oc3c(F)cc(Nc4cc(Cl)nc(N)n4)cc3F)c12,120
COCCOc1nc(-c2ccc(Cl)nc2)nc2c1CN(C(=O)c1ncn3ccccc13)CC2,119
CCOC(=O)c1cc2cc(-c3cc(C(=O)NCc4ccc(C(=O)O)cc4)nn3C)ccc2[nH]1,111
O=C(Nc1ccc(-n2nc(-c3cccnc3)cc2C(F)(F)F)cn1)c1ccc(-c2ccccc2)c(F)c1,108
CCCOc1ccc([C@H]2[C@H](C(=O)O)[C@@H](c3ccc4c(c3)OCO4)CN2CC(=O)Nc2c(CC)cccc2CC)cc1,124
COc1ccc2cc(OCC3(C(=O)O)CN(C(=O)c4ccc(F)cc4)C3)ccc2c1,107
CS(=O)(=O)NCC[C@H](NC(=O)c1cncc2c1cnn2-c1ccc(F)cc1)c1ccnc(S(C)(=O)=O)c1,102

# Set 2
# Host: mouse
# Medium: microsomes or S9
# Tested at: 2 µM
# Time: 0.5 h
Compound,remaining compound [%]
CCOC(=O)c1c(C)nc2c(c3c(n2Cc2ccc(OC)cc2)CCC3)c1-c1ccc2c3c(ccnc13)CCO2,0.152
C=CCc1c(O)ccc2[nH]cc(S(=O)(=O)c3ccc(C)cc3)c12,5.88
CC(C)n1nccc1C1CC(=O)Nc2cccc3c2c1cn3Cc1ccccc1 (stereo not shown),24.7
Cc1ccc(-c2ccc(-n3nc(C)c(S(=O)(=O)Nc4ccc5c(c4)OCCO5)c3C)nn2)cc1,25.2
Cc1c(-c2cc[nH]n2)c2c(C)cccn2c1-c1ccccc1,5.34
C=CCc1cc(CNc2ncnc3nn(C)cc23)cc(OC)c1OC,16.3
CCn1c(N)c(-c2nc3ccccc3[nH]2)c(=O)c2ccccc21,17.3
CCc1ccccc1NC(=O)Cn1nc2n(C)c(=O)c3ccc(C(=O)NC(C)CC)cc3n2c1=O (stereo not shown),59.4
Oc1cc(CCn2cnc(-c3ccccc3)c2-c2cccc3cccnc23)ncn1,83.8
O=c1c2c([nH]n1-c1nc3ccccc3[nH]1)CCCC2,51.1
O=C(CC1c2ccccc2Oc2ccccc21)N1CCCC1c1nc(-c2ccncc2)n[nH]1 (stereo not shown),41.4
Cc1sc(NC(=O)NCC(CC(C)C)N(C)C)c(C#N)c1C (stereo not shown),40.7

# Set 3
# Structure (SMILES): Cn1nc2c3c(cccc31)C(=O)c1ccccc1-2
# Read-out: enzyme activity
# Mode: inhibitor
# Tested at: 0.5 µM
# Reference: control
target,remaining activity
"CLK4 (Homo sapiens, UniProt Q9HAZ1)",69.8%
"KDR (Homo sapiens, UniProt P35968)",101%
"MAP2K1 (Homo sapiens, UniProt Q02750)",86.3%
"MAPK1 (Homo sapiens, UniProt P28482)",91.7%
"GRK4 (Homo sapiens, UniProt P32298)",105%
"TLK2 (Homo sapiens, UniProt Q86UE8)",101%
"Cyclin-dependent kinase 1, with cyclin A (CDK1, Homo sapiens, UniProt P06493)",88%
"MINK1 (Homo sapiens, UniProt Q8N4C8)",92.3%
"Myosin-IIIb (MYO3B, Homo sapiens, UniProt Q8WXR4)",97.7%
"RPS6KA4 (Homo sapiens, UniProt O75676)",105%
"CLK3 (Homo sapiens, UniProt P49761)",98.5%
"TXK (Homo sapiens, UniProt P42681)",92%
"MET (Homo sapiens, UniProt P08581)",107%
"NEK3 (Homo sapiens, UniProt P51956)",96.7%

# Set 4
# Target: DNA polymerase theta, helicase domain (POLQ, Homo sapiens, UniProt O75417)
# Chain of UniProt O75417 (whole entry, looked up): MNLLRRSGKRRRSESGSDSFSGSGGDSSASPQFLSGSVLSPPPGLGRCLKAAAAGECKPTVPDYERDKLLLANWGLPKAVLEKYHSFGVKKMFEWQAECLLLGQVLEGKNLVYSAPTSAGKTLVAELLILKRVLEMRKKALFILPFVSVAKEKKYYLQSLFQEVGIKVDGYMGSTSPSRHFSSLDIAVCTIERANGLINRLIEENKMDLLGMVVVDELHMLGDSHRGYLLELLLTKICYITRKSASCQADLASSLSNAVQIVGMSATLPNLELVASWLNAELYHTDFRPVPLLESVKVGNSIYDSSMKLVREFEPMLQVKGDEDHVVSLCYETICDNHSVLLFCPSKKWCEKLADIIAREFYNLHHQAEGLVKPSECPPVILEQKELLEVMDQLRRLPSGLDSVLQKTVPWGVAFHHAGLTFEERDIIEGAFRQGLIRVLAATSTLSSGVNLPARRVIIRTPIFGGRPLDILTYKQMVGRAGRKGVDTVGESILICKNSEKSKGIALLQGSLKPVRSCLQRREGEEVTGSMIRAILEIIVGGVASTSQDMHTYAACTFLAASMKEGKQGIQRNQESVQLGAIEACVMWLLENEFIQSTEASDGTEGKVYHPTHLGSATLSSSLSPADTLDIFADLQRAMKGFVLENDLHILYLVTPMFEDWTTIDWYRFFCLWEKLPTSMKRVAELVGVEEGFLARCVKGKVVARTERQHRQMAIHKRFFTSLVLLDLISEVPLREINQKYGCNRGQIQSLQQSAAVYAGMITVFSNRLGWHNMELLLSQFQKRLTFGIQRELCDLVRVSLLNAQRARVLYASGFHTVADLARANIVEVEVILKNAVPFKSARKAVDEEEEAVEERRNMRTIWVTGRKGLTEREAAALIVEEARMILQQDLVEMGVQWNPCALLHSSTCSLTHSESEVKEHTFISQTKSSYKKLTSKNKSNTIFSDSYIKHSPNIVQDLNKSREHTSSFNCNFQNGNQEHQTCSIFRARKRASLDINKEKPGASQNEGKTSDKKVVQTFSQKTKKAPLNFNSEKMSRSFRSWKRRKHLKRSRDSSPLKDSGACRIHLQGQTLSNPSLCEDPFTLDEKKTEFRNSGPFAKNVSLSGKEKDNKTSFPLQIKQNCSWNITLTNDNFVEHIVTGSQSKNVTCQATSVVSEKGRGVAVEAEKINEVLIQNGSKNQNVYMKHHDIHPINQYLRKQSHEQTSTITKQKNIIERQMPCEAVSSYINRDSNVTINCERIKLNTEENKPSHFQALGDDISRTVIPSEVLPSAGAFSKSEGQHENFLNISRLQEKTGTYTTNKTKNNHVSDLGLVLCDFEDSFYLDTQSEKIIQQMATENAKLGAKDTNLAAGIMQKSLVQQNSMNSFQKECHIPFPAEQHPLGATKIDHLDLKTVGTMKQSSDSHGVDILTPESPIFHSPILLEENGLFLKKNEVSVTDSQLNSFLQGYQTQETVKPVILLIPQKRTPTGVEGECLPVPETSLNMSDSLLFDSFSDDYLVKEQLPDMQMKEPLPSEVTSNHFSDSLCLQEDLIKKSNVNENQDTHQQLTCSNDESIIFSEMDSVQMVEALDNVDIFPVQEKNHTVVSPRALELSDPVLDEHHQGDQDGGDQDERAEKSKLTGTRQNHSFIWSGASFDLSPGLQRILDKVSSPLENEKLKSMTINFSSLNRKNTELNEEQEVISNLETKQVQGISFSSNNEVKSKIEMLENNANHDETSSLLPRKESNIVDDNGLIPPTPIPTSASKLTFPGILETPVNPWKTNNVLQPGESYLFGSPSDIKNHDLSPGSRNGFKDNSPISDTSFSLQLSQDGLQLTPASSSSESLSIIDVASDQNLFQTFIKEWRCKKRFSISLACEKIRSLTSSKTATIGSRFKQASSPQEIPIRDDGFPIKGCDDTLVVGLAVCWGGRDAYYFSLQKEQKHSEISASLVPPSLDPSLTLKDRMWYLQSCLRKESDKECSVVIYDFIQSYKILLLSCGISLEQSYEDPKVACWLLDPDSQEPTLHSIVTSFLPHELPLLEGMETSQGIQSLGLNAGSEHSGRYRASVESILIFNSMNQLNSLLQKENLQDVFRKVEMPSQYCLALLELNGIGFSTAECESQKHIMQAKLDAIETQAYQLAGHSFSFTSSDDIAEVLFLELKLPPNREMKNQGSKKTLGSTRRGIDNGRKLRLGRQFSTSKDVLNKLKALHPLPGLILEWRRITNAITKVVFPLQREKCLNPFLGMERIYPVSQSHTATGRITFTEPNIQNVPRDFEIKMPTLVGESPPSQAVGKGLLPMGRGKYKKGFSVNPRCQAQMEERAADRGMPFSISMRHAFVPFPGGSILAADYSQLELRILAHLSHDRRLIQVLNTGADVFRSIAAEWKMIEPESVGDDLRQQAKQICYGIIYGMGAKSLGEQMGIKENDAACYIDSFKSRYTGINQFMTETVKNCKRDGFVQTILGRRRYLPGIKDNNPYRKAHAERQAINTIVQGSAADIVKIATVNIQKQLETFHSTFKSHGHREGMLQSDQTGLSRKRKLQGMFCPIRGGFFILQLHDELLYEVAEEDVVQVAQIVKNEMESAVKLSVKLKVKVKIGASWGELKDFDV
# Mode: inhibitor
# Tested at: concentration not given
# With: without ssDNA
Compound,remaining activity
O=c1[nH]c2cc(Cl)ccc2c(O)c1-c1cccc(Oc2ccccc2)c1,66.1%
CCOc1ccccc1NC(=O)CSc1ncc(S(=O)(=O)c2ccc(C(C)(C)C)cc2)c(=O)[nH]1,71% and 71.7%
CCc1ccc(/C=C2/SC(=S)NC2=O)cc1,42.5% and 47.5%
Cc1ccc(C2C=C(c3ccccc3)N=C3N=C(NS(C)(=O)=O)NN32)cc1 (stereo not shown),88.8% and 90%
CC1(C)Cc2c(-c3ccccc3)c(-c3ccc(Cl)cc3)c(CC(=O)O)n2C1,50.8% and 50%
CSc1ccc(/C=C/c2nc3ccccc3n2S(=O)(=O)c2ccc(Br)cc2)cc1,67.2% and 69.7%
CCC(C)(Oc1ccc(C2(c3ccc(OC(C)(CC)C(=O)O)cc3)CCCCC2)cc1)C(=O)O (stereo not shown),129% and 127%
Cc1nc(N=Nc2cc(S(=O)(=O)O)c3cc([N+](=O)[O-])cc(S(=O)(=O)O)c3c2)c(COP(=O)(O)O)c(C=O)c1O,153% and 155%
N#Cc1c(O)c2c(-c3ccc(-c4ccccc4O)cc3)csc2[nH]c1=O,48.1% and 48.3%

# A few entries again (set 2):
Compound,remaining compound [%]
Cc1ccc(-c2ccc(-n3nc(C)c(S(=O)(=O)Nc4ccc5c(c4)OCCO5)c3C)nn2)cc1,25.2
Cc1c(-c2cc[nH]n2)c2c(C)cccn2c1-c1ccccc1,5.34
C=CCc1cc(CNc2ncnc3nn(C)cc23)cc(OC)c1OC,16.3
CCn1c(N)c(-c2nc3ccccc3[nH]2)c(=O)c2ccccc21,17.3
